Measured values from different studies.
Numbered parts are unrelated; each lists some results of a single study. Values joined by “and” are separate records of one study, mostly repeats; a detail may differ.
Sequence of UniProt Q16853 (whole entry, looked up): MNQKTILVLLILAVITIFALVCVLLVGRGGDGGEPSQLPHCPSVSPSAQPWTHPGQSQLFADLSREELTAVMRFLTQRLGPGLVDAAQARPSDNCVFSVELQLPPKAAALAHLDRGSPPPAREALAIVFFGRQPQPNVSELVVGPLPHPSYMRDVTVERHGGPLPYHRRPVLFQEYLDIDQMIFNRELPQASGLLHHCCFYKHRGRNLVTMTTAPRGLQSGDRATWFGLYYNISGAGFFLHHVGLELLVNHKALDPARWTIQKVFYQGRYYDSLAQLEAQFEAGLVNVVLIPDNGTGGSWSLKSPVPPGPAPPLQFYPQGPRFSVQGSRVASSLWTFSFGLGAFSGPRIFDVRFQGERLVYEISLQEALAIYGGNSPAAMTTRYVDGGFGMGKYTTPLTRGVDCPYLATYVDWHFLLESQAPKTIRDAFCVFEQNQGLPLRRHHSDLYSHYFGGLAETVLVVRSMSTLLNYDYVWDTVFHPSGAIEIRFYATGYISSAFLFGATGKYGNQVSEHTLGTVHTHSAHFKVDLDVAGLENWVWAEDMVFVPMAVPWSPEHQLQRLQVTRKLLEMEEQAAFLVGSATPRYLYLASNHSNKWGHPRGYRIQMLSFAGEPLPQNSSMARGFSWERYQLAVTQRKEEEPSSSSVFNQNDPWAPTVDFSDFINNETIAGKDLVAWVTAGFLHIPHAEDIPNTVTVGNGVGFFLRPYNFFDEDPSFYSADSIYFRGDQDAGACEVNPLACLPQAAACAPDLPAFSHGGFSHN
Sequence of UniProt P31751 (whole entry, looked up): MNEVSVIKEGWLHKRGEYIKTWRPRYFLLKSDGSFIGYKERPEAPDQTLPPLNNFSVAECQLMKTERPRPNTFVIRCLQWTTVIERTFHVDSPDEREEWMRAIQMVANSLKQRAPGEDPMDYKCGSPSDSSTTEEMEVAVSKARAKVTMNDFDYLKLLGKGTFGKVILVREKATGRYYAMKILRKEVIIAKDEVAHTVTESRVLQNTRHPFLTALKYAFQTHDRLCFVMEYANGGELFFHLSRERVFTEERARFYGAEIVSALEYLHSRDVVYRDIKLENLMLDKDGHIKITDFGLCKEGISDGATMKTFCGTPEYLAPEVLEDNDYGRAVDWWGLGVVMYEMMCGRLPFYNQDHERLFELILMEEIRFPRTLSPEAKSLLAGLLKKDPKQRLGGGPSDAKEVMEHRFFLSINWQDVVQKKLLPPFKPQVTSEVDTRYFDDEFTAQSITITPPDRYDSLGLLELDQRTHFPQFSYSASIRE
Sequence of UniProt P68400 (whole entry, looked up): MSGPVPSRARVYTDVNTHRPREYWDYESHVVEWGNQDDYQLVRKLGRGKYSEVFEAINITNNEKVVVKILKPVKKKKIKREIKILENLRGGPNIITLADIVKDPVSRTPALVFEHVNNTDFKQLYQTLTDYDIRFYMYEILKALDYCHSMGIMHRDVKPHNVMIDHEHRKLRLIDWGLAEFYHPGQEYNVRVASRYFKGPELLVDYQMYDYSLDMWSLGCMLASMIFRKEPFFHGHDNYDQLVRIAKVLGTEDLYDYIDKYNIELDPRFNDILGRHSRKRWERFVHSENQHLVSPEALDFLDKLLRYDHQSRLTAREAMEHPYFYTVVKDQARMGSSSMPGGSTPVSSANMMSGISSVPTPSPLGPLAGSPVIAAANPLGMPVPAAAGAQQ
Sequence of UniProt Q00537 (whole entry, looked up): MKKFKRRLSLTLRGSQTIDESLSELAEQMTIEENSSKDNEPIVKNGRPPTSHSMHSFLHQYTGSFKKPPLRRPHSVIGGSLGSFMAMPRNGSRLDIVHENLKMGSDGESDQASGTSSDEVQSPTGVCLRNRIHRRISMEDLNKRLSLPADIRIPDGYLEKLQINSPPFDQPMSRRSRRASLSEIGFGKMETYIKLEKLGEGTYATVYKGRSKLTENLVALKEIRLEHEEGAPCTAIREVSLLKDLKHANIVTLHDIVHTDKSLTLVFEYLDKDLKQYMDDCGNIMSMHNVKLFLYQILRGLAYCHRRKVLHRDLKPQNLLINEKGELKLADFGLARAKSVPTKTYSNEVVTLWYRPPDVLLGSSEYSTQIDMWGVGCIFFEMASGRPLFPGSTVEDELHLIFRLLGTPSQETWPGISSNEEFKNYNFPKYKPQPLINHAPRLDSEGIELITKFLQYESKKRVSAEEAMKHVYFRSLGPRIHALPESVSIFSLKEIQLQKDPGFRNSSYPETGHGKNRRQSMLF

Series 1
SMILES: C[C@@H]1CN(c2ccc(-c3cc(C(=O)NCCOCCOCCOCCOCCNC(=O)/C=C/c4[nH]cc(C(=O)N[C@@H](CC(N)=O)c5ccc(F)c(Cl)c5)c4-c4ccc(Cl)cc4F)ccc3F)cc2NC(=O)c2c[nH]c(=O)cc2C(F)(F)F)C[C@H](C)N1C
Effect on: thermal unfolding
Technique: differential scanning fluorimetry
Concentration: 5.5 µM
Direction: higher = more unfolded
DCAF1: DDB1- and CUL4-associated factor 1 (DCAF1, Homo sapiens, UniProt Q9Y4B6)
Sequence of UniProt Q9Y4B6 (whole entry, looked up): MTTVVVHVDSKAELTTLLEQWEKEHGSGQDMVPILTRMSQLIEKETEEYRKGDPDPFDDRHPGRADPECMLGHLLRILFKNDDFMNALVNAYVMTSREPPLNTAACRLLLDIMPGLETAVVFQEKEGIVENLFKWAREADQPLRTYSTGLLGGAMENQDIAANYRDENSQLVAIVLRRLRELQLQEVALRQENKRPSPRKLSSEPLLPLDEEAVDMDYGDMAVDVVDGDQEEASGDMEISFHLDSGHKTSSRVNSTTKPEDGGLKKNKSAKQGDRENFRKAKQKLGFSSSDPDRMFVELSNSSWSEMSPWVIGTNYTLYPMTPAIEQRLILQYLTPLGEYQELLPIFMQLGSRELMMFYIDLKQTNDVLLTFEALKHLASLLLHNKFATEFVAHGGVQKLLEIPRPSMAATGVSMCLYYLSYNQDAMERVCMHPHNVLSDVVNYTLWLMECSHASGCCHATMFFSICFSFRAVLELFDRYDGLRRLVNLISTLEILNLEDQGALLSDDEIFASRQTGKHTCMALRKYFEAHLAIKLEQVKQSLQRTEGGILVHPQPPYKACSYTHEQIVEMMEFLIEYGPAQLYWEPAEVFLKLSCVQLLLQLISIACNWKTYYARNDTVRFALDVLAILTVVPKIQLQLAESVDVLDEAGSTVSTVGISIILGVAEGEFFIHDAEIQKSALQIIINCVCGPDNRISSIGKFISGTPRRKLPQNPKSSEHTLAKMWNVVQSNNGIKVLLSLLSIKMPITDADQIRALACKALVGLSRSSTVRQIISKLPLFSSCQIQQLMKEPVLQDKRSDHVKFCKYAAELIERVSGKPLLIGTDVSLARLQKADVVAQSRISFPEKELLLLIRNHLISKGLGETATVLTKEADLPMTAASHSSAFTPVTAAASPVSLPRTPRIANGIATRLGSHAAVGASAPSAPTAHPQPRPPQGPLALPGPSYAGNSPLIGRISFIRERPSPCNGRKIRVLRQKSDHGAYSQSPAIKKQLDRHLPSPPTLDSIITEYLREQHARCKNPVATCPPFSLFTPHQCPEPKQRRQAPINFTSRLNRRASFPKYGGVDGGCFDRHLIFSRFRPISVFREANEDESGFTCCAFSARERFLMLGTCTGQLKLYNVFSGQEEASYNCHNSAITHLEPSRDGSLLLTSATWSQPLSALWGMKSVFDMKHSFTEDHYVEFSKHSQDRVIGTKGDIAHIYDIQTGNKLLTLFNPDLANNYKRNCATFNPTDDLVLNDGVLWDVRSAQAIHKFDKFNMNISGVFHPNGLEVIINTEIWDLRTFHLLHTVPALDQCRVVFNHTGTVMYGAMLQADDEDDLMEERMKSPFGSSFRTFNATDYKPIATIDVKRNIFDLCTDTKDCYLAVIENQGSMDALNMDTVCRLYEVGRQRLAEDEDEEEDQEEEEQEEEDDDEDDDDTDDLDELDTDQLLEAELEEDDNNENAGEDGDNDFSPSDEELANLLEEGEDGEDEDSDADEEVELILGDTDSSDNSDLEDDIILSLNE
WDR5: WD repeat-containing protein 5 (WDR5, Homo sapiens, UniProt P61964)
DCAF1; 46 °C — “SYPRO Orange fluorescence”: 13400 a.u.
For WDR5; 85.21 °C: “SYPRO Orange fluorescence” read 52500 a.u.
The “SYPRO Orange fluorescence” was 40700 a.u. (DCAF1; 84.61 °C).
The “SYPRO Orange fluorescence” was 33700 a.u. (WDR5; 77.81 °C).
It gave 13000 a.u. for “SYPRO Orange fluorescence” (WDR5; 26.2 °C).
The “SYPRO Orange fluorescence” was 15300 a.u. (WDR5; 69.21 °C).
DCAF1; 56.81 °C — “SYPRO Orange fluorescence”: 26500 a.u.
WDR5; 56.01 °C — “SYPRO Orange fluorescence”: 16800 a.u.
DCAF1; 86.61 °C — “SYPRO Orange fluorescence”: 38300 a.u.
WDR5; 32.4 °C — “SYPRO Orange fluorescence”: 12700 a.u.
For WDR5; 36.8 °C: “SYPRO Orange fluorescence” read 13600 a.u.

Series 2
SMILES: NC/C(=C\F)COc1cc(Cn2c(=S)[nH]c(=O)c3[nH]cnc32)cc(C(F)(F)F)c1
Effect on: enzyme activity
Action: inhibitor
Technique: fluorescence
MPO: Myeloperoxidase (MPO, Homo sapiens, UniProt P05164)
Sequence of UniProt P05164 (whole entry, looked up): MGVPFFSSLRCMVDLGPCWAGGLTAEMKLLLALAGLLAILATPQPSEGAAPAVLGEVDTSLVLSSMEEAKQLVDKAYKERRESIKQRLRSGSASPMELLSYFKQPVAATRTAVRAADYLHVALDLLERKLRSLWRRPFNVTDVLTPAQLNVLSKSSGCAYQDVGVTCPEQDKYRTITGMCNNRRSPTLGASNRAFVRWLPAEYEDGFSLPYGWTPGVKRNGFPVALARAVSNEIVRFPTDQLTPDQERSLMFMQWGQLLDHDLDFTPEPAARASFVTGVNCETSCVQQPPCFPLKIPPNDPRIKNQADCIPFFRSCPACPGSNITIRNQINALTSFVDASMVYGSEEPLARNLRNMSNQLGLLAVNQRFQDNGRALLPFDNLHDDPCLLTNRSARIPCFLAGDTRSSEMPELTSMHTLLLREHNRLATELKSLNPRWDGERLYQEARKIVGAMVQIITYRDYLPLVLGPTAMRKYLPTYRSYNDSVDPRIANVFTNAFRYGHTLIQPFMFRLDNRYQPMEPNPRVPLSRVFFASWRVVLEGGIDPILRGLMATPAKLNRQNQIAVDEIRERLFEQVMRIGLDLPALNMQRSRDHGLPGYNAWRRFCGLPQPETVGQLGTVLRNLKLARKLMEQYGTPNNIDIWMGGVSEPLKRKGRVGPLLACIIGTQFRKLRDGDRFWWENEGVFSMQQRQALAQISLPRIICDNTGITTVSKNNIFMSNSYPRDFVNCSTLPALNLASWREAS
For MPO; 41.2 nM: inhibition read 74.2%.
It gave 101% for inhibition (MPO; 10 µM).
The inhibition was -2.16% (MPO; 300 pM).
MPO; 1.667 µM — inhibition: 100%.
For MPO; 4.6 nM: inhibition read 22.7%.
The inhibition was 48.1% (MPO; 13.7 nM).
It gave 12.4% and 9.08% and 18.8% and 13.3% for inhibition (AOC3 (Homo sapiens, UniProt Q16853); 0.3704 µM).
For MPO; 3.333 µM: inhibition read 101%.

Series 3
Organism: Arabidopsis thaliana
Strain: Col-0
Concentration: 12.5 µg/mL
Setting: seed germination, single repetition
With `COc1ccc2c(c1)OC(O)(C(=O)O)C(=O)N2Cc1ccccc1` (stereo not drawn) the hypocotyl length was 1.82 cm and 1.83 cm and 1.87 cm and 1.85 cm.
For `O=C(O)C1(O)Oc2cc(Br)ccc2N(Cc2ccccc2)C1=O` (stereo not drawn), the hypocotyl length was 1.91 cm and 1.92 cm and 1.95 cm and 1.94 cm.
With `Cc1ccc2c(c1)OC(O)(C(=O)O)C(=O)N2Cc1ccccc1` (stereo not drawn) the hypocotyl length was 2.02 cm and 2.04 cm and 2.05 cm and 2.03 cm.
The hypocotyl length of `O=C(O)C1(O)Oc2ccccc2N(Cc2ccccc2)C1=O` (stereo not drawn) is reported as 1.79 cm and 1.78 cm and 1.7 cm and 1.76 cm.
`CC(C)(C)c1ccc(Oc2ccc3c(c2)OC(O)(C(=O)O)C(=O)N3Cc2ccccc2)cc1` (stereo not drawn) gave a hypocotyl length of 1.84 cm and 1.86 cm and 1.83 cm and 1.98 cm and 1.89 cm.

Series 4
Compound: O=C(Nc1ccccc1)Nc1cccc(Oc2ccc3nccn3n2)c1
Concentration: 1 µM
It gave 83% for remaining binding (ALK (Homo sapiens, UniProt Q9UM73); binding).
For NTRK2 (Homo sapiens, UniProt Q16620); binding, competition with immobilised ligand: remaining binding read 100%.
It gave 64% for remaining binding (NEK9 (Homo sapiens, UniProt Q8TD19); binding).
It gave 100% for remaining binding (CDK16 (Homo sapiens, UniProt Q00536); binding).
For WNK3 (Homo sapiens, UniProt Q9BYP7); binding: remaining binding read 100%.
The remaining binding was 100% (PIK3CA (Homo sapiens, UniProt P42336, C420R); binding).
It gave 100% for remaining binding (CDK5 (Homo sapiens, UniProt Q00535); cell-free binding).
For DYRK2 (Homo sapiens, UniProt Q92630); binding: remaining binding read 100%.
It gave 65% for remaining binding (MAP3K20 (Homo sapiens, UniProt Q9NYL2); binding, competition with immobilised ligand).
It gave 100% for remaining binding (PKN2 (Homo sapiens, UniProt Q16513); binding).
It gave 100% for remaining binding (Insulin receptor (INSR, Homo sapiens, UniProt P06213); binding).
For STK35 (Homo sapiens, UniProt Q8TDR2); cell-free binding: remaining binding read 89%.
BMPR1A (Homo sapiens, UniProt P36894); binding, competition with immobilised ligand — remaining binding: 100%.
SIK2 (Homo sapiens, UniProt Q9H0K1); binding, competition with immobilised ligand — remaining binding: 88%.
For VRK2 (Homo sapiens, UniProt Q86Y07); binding, competition with immobilised ligand: remaining binding read 100%.
For EPHB6 (Homo sapiens, UniProt O15197); binding, competition with immobilised ligand: remaining binding read 91%.
It gave 79% for remaining binding (RAF1 (Homo sapiens, UniProt P04049); binding, competition with immobilised ligand).
The remaining binding was 86% (PIK3CD (Homo sapiens, UniProt O00329); binding).
It gave 71% for remaining binding (PAK5 (Homo sapiens, UniProt Q9P286); binding).
ACVRL1 (Homo sapiens, UniProt P37023); binding, competition with immobilised ligand — remaining binding: 100%.
For STK39 (Homo sapiens, UniProt Q9UEW8); binding: remaining binding read 100%.
The remaining binding was 100% (CILK1 (Homo sapiens, UniProt Q9UPZ9); binding).

Series 5
Cell line: HCC1569
Technique: in-cell western
Refers to: CDK1 phospho-Thr14
Concentration: 123.46 nM
`Cc1ccc(O)c(C)c1-c1cnc2[nH]c(-c3cnc(N4CCC5(CC4)CC(CN4CCN(c6ccc(NC7CCC(=O)NC7=O)cc6F)CC4)C5)nc3)cc2c1C#N` (stereo not drawn) — result for “pCDK1 (Thr14) level”: 58.6 RLU and 45.9 RLU.
`Cc1ncc(-c2cc3c(Cl)c(-c4c(C)ccc(O)c4C)cnc3[nH]2)cn1` — result for “pCDK1 (Thr14) level”: 12.3 RLU and 21.9 RLU.
`Cc1ncc(-c2cc3c(C(N)=O)c(-c4c(C)ccc(O)c4C)cnc3[nH]2)cn1`: “pCDK1 (Thr14) level” 6.27 RLU and 12.4 RLU.
For `Cc1ccc(O)c(C)c1-c1cnc2[nH]c(-c3cnc(N4CCC(CN5CCN(c6ccc7c(c6)CN(C6CCC(=O)NC6=O)C7=O)CC5)CC4)nc3)cc2c1C#N` (stereo not drawn), “pCDK1 (Thr14) level” read 85.3 RLU and 70.2 RLU.
`Cc1ncc(-c2cc3c(C(F)(F)F)c(-c4c(C)ccc(O)c4C)cnc3[nH]2)cn1`: “pCDK1 (Thr14) level” 16.6 RLU and 29.4 RLU.
For `Cc1ccc(O)c(C)c1-c1cnc2[nH]c(-c3cnc(N)nc3)cc2c1C#N`, “pCDK1 (Thr14) level” read 44.1% and 51.2%.
For `Cc1ccc(O)c(C)c1-c1cnc2[nH]c(-c3cnc(N4CCC(CCN5CCN(c6ccc(NC7CCC(=O)NC7=O)cc6F)CC5)CC4)nc3)cc2c1C#N` (stereo not drawn), “pCDK1 (Thr14) level” read 93.9 RLU and 101 RLU.
`Cc1ccc(O)c(C)c1-c1cnc2[nH]c(-c3cnc(N4CCC(CN5CCN(c6ccc7c(c6F)CN(C6CCC(=O)NC6=O)C7=O)CC5)CC4)nc3)cc2c1C#N` (stereo not drawn): “pCDK1 (Thr14) level” 74.9 RLU and 87.4 RLU.

Series 6
Structure (SMILES): CC[C@@]1(c2cccc(-c3c(F)cncc3OC)c2)C2=C(Nc3n[nH]cc31)[C@H](F)C(C)(C)CC2=O (single isomer, unassigned)
Concentration: 1 µM
For MTOR (Homo sapiens, UniProt P42345); binding, competition with immobilised ligand: remaining binding read 100%.
The remaining binding was 100% (CSNK2A1 (Homo sapiens, UniProt P68400); kinase binding, KINOMEscan; baseline: DMSO control).
The remaining binding was 92% (NEK1 (Homo sapiens, UniProt Q96PY6); binding, competition with immobilised ligand).
For AKT2 (Homo sapiens, UniProt P31751); kinase binding, KINOMEscan; baseline: DMSO control: remaining binding read 100%.
It gave 59% for remaining binding (PIP5K1A (Homo sapiens, UniProt Q99755); binding, competition with immobilised ligand).
FLT3 (Homo sapiens, UniProt P36888, N841I); binding, competition with immobilised ligand — remaining binding: 66%.
For SBK1 (Homo sapiens, UniProt Q52WX2); binding, competition with immobilised ligand: remaining binding read 72%.
The remaining binding was 54% (DDR2 (Homo sapiens, UniProt Q16832); kinase binding, KINOMEscan; baseline: DMSO control).
For PTK6 (Homo sapiens, UniProt Q13882); kinase binding, KINOMEscan; baseline: DMSO control: remaining binding read 100%.
The remaining binding was 18% (CDK17 (Homo sapiens, UniProt Q00537); binding, competition with immobilised ligand).
For LTK (Homo sapiens, UniProt P29376); binding, competition with immobilised ligand: remaining binding read 70%.
For AXL (Homo sapiens, UniProt P30530); kinase binding, KINOMEscan; baseline: DMSO control: remaining binding read 100%.
For CLK1 (Homo sapiens, UniProt P49759); binding, competition with immobilised ligand: remaining binding read 84%.
For GRK1 (Homo sapiens, UniProt Q15835); binding, competition with immobilised ligand: remaining binding read 79%.
For TXK (Homo sapiens, UniProt P42681); kinase binding, KINOMEscan; baseline: DMSO control: remaining binding read 89%.
The remaining binding was 63% (TNIK (Homo sapiens, UniProt Q9UKE5); binding, competition with immobilised ligand).
Ribosomal protein S6 kinase alpha-3, N-terminal kinase domain (RPS6KA3, Homo sapiens, UniProt P51812); binding, competition with immobilised ligand — remaining binding: 82%.
MKNK1 (Homo sapiens, UniProt Q9BUB5); binding, competition with immobilised ligand — remaining binding: 65%.

Series 7
SMILES: CCN1/C(=C/C=C2\CCCC(/C=C/C3=[N+](CC)c4ccccc4C3(C)C)=C2NCCCCCCCCN2CCC(Nc3nc4ccccc4n3Cc3ccc(F)cc3)CC2)C(C)(C)c2ccccc21
Cell line: U-87 MG
Concentration: concentration not given
Baseline: DMSO
The “log2 fold change” was 2.43 (refers to: BMP2 mRNA).
For refers to: KDM3A mRNA: “log2 fold change” read 1.08.
It gave -3.12 for “log2 fold change” (refers to: LOXL4 mRNA).
The “log2 fold change” was 0.981 (refers to: NXF1 mRNA).
refers to: PGM3 mRNA — “log2 fold change”: 1.23.
For refers to: KBTBD8 mRNA: “log2 fold change” read 2.38.
It gave -1.13 for “log2 fold change” (refers to: SLC29A2 mRNA).
For refers to: SH3BP2 mRNA: “log2 fold change” read -1.29.
It gave -2.36 for “log2 fold change” (refers to: DAAM2 mRNA).
refers to: SLF1 mRNA — “log2 fold change”: -1.04.
It gave 1.41 for “log2 fold change” (refers to: ARG2 mRNA).
It gave -2.07 for “log2 fold change” (refers to: NRM).
For refers to: PTGS2 mRNA: “log2 fold change” read 4.36.
It gave -0.917 for “log2 fold change” (refers to: TGFA mRNA).
The “log2 fold change” was -0.835 (refers to: ERLIN1 mRNA).
refers to: ZNF474 mRNA — “log2 fold change”: 2.27.

Further values, each from its own experiment
Action: inhibitor
SLC6A19: Sodium-dependent neutral amino acid transporter B(0)AT1 (SLC6A19, Homo sapiens, UniProt Q695T7)
Sequence of UniProt Q695T7 (whole entry, looked up): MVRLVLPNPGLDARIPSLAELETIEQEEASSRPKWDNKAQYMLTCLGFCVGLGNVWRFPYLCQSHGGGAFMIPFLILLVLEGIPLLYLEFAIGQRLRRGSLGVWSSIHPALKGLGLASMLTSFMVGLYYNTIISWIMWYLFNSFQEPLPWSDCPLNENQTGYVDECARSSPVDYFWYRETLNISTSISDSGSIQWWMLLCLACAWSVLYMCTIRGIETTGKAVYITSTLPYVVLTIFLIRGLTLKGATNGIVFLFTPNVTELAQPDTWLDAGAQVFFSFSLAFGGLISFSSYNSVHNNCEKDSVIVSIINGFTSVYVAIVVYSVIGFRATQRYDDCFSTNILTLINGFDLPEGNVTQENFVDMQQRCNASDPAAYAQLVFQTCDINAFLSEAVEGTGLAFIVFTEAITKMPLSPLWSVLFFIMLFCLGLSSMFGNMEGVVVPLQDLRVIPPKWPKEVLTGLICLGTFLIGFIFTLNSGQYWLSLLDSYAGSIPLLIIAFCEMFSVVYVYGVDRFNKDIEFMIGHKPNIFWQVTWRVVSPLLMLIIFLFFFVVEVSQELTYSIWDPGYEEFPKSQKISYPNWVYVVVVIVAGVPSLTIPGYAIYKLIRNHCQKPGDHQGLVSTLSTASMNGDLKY
`CCNC(=O)COc1ccc(Br)c(C)c1` — result for “remaining transport activity”: 1 (SLC6A19; L-[14C]leucine uptake; CHO-BC cells; 0.01 µM, 6 min, 37 °C, unit not given, with: GPNA 3 mM, JPH203 3 µM; baseline: uninhibited cells).
`CN(C1COC1)C(C)(C)/C=C(\C#N)C(=O)N1CCC[C@H]1Cn1nc(-c2ccc(Oc3ccccc3)cc2F)c2c(N)ncnc21` gave a kinact/KI of 400000 M⁻¹ s⁻¹ (BTK (Homo sapiens, UniProt Q06187); enzyme activity).
Under “remaining transport activity”, `CCNC(=O)COc1cc(C)c(Cl)c(C)c1` is recorded as 0.11 (SLC6A19; L-[14C]leucine uptake; CHO-BC cells; 10 µM, 6 min, unit not given, with: GPNA 3 mM, JPH203 3 µM; baseline: uninhibited cells).
`Cc1cc(OCC(=O)OC(C)C)cc(C)c1Cl` — result for “normalised transport activity”: 1.01 (SLC6A19; FLIPR membrane potential; CHO-BC cells; 30 µM).
`CCCNC(=O)COc1ccc(I)c(C)c1` — result for “remaining transport activity”: 0.653 (SLC6A19; FLIPR membrane potential; CHO-BC cells; 0.03 µM, unit not given; baseline: uninhibited cells).

For quick reference, copied from above (series 6):
The remaining binding was 18% (CDK17 (Homo sapiens, UniProt Q00537); binding, competition with immobilised ligand).
MKNK1 (Homo sapiens, UniProt Q9BUB5); binding, competition with immobilised ligand — remaining binding: 65%.
For SBK1 (Homo sapiens, UniProt Q52WX2); binding, competition with immobilised ligand: remaining binding read 72%.
The remaining binding was 63% (TNIK (Homo sapiens, UniProt Q9UKE5); binding, competition with immobilised ligand).
For MTOR (Homo sapiens, UniProt P42345); binding, competition with immobilised ligand: remaining binding read 100%.
For LTK (Homo sapiens, UniProt P29376); binding, competition with immobilised ligand: remaining binding read 70%.
The remaining binding was 100% (CSNK2A1 (Homo sapiens, UniProt P68400); kinase binding, KINOMEscan; baseline: DMSO control).
FLT3 (Homo sapiens, UniProt P36888, N841I); binding, competition with immobilised ligand — remaining binding: 66%.
For TXK (Homo sapiens, UniProt P42681); kinase binding, KINOMEscan; baseline: DMSO control: remaining binding read 89%.
